Measurements pooled from the literature.
Each line is one published result; not all experiments were run side by side.
MTNR1B: Melatonin receptor type 1B (MTNR1B, Homo sapiens, UniProt P49286)
UniProt P49286, sequence (whole entry, looked up): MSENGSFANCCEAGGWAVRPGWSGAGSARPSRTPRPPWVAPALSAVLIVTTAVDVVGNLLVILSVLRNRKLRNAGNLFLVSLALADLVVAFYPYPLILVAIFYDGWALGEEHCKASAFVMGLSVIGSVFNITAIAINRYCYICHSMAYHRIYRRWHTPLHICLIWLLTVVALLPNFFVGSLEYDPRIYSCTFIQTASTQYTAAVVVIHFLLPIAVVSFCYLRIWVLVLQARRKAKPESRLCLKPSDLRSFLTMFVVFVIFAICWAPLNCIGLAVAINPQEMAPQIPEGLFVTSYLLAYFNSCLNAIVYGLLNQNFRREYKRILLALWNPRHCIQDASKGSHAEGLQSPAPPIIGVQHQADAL
UniProt P51955, sequence (whole entry, looked up): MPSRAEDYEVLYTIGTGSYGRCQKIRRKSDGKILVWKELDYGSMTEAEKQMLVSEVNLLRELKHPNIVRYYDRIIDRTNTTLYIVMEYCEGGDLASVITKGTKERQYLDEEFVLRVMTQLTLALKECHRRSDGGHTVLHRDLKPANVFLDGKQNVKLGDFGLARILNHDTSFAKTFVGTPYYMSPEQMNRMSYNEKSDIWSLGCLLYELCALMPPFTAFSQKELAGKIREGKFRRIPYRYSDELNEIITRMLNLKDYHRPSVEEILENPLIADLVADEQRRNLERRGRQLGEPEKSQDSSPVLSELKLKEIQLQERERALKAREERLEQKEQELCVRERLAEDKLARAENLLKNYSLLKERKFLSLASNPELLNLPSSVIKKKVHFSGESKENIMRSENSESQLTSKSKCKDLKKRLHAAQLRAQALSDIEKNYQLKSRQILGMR
UniProt Q9H4A3, sequence (whole entry, looked up): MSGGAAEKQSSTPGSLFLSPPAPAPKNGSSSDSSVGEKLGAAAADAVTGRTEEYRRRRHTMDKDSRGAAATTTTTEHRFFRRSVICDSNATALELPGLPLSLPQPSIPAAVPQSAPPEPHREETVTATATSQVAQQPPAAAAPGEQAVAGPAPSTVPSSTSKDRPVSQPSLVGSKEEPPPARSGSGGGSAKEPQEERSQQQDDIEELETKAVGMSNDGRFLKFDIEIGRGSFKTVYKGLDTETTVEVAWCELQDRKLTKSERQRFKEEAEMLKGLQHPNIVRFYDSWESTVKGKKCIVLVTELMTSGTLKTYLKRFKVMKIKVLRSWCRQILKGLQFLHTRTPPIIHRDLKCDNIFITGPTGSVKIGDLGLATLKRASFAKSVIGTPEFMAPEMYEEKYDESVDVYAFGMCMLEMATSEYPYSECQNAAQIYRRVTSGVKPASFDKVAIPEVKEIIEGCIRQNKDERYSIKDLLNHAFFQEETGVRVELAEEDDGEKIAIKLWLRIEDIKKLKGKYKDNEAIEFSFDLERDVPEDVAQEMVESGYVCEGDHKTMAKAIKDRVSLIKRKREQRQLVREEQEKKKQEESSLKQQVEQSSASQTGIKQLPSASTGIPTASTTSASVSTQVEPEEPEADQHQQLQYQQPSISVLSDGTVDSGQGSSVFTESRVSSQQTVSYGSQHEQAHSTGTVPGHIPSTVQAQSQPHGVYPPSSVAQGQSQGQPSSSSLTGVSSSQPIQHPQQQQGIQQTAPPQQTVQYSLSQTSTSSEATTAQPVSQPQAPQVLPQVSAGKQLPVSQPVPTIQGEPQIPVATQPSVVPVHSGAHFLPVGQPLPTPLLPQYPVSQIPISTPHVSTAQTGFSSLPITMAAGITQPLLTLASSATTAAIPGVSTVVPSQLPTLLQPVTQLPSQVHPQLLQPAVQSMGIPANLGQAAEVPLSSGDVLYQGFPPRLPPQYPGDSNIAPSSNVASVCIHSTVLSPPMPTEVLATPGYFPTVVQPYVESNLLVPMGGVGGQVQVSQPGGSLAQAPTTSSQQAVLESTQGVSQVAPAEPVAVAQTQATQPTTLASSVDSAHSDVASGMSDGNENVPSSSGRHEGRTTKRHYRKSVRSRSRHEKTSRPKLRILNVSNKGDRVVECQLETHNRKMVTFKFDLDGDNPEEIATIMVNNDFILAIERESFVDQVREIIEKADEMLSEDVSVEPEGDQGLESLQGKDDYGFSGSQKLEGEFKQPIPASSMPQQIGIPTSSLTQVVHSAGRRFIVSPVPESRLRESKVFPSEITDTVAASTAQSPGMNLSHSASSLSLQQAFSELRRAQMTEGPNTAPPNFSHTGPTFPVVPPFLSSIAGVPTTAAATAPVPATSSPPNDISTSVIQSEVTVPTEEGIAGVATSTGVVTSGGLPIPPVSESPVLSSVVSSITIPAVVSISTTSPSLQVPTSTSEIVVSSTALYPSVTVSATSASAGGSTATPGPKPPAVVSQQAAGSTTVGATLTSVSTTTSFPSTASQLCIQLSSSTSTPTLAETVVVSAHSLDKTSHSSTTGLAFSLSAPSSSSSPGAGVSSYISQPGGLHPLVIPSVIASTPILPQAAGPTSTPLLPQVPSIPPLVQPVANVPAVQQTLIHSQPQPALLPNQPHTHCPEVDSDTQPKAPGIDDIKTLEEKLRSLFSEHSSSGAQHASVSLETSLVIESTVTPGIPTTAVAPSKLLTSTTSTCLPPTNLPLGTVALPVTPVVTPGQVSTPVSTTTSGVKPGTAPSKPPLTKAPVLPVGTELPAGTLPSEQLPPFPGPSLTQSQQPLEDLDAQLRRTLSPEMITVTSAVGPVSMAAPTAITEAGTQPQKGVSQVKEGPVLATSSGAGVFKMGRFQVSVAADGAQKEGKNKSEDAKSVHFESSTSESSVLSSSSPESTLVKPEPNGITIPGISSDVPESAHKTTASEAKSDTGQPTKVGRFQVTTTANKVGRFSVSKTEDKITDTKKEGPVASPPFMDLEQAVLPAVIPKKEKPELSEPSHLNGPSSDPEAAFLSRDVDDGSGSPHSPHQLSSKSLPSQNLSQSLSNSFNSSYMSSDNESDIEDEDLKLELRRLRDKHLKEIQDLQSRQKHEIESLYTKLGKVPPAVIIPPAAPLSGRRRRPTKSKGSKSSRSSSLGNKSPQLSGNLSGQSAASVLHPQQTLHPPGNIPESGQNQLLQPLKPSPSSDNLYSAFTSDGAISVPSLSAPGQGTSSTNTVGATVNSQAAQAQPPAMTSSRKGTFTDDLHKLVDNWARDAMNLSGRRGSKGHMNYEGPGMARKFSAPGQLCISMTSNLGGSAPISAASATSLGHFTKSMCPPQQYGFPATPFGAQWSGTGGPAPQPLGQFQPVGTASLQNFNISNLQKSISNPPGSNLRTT
UniProt Q62868, sequence (whole entry, looked up): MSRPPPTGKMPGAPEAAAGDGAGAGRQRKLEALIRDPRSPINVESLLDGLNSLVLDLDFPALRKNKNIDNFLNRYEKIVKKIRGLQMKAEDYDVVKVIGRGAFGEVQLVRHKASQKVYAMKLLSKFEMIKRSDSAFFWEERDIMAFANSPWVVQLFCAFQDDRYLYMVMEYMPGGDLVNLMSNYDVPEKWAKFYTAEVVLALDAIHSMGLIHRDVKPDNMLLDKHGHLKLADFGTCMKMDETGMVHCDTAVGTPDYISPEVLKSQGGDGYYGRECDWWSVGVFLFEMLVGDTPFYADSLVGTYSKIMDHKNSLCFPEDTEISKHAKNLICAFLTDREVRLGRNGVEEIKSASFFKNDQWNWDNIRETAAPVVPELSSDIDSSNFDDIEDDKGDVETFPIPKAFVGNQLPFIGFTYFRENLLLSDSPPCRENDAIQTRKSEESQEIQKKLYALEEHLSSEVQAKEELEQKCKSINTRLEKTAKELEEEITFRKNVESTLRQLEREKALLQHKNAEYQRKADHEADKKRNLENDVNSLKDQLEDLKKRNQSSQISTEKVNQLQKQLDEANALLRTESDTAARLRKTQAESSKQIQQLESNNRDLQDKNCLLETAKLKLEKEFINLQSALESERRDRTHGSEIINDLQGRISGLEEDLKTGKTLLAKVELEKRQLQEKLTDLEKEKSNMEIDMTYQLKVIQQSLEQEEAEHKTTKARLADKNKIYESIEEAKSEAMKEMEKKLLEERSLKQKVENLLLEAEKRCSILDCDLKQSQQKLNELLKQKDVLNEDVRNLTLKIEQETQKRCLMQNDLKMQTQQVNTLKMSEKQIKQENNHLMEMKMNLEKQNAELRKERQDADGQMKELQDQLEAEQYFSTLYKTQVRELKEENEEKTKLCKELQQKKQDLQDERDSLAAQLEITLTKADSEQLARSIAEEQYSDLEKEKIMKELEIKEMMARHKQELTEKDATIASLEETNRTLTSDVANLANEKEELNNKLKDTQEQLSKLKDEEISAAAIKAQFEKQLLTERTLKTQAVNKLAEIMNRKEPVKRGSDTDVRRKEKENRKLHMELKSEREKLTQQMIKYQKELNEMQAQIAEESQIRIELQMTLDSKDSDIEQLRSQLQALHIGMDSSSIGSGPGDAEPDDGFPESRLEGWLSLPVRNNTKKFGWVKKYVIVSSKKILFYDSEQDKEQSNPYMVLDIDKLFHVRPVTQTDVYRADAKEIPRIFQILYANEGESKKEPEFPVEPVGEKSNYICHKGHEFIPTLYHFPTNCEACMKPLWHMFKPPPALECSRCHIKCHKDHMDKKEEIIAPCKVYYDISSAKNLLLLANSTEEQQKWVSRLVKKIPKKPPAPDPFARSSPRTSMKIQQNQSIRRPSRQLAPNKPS
UniProt Q00535, sequence (whole entry, looked up): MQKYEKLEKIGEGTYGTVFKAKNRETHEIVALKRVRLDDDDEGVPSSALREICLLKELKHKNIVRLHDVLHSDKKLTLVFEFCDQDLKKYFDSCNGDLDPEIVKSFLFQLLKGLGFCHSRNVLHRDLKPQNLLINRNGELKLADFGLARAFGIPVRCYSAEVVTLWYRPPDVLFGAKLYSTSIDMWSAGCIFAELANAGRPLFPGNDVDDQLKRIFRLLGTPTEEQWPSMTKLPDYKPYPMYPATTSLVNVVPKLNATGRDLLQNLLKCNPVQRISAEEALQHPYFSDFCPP

For `COCC(CNC(C)=O)c1cccc2ccc(OC)cc12` (centres unmarked), the Emax was 81% (MTNR1B; β-arrestin recruitment, agonist; MT2; 90 min).
The remaining signal of `C1=C/COCc2cc(ccc2OCCN2CCCC2)Nc2nccc(n2)-c2cccc(c2)COC/1` is reported as 81% (Serine/threonine-protein kinase WNK1 (WNK1, Homo sapiens, UniProt Q9H4A3); cell-free assay; 0.1 µM).
`Nc1ncnc2occ(-c3ccc(NC(=O)Nc4cc(C(F)(F)F)ccc4F)cc3)c12` gave a remaining signal of 44% (Phosphatidylinositol 4,5-bisphosphate 3-kinase catalytic subunit alpha isoform (PIK3CA, Homo sapiens, UniProt P42336, I800L); cell-free assay, inhibitor; 20 µM).
With `Cc1cc([C@@H](C)Nc2ccccc2C(=O)O)c2nc(N3CCC(F)(F)CC3)c(C#N)c(=O)n2c1` the remaining binding was 95% (Tyrosine-protein kinase BTK (BTK, Homo sapiens, UniProt Q06187); binding, competition with immobilised ligand; 10 µM).
`CCCCC(=O)Nc1ccc(-c2ccc3ncn(CCC)c(=O)c3c2)cn1` has a remaining binding of 58% (Serine/threonine-protein kinase WNK2 (WNK2, Homo sapiens, UniProt Q9Y3S1); binding, competition with immobilised ligand; 0.5 µM).
Under “activity vs control”, `FC(F)(F)Oc1cccc(-c2cnc3ccc(-c4ccncc4)nn23)c1` is recorded as 102% (Rho-associated protein kinase 2 (Rock2, Rattus norvegicus, UniProt Q62868); enzyme activity, inhibitor, radiometric; 1 µM).
With `COc1cc(-c2cncc3c2CN(C)Cc2cc(N4CCNCC4)ccc2-3)cc(OC)c1OC` the remaining activity was 102% (Cyclin-dependent kinase 14, with cyclin Y (CDK14, Homo sapiens, UniProt O94921); enzyme activity, inhibitor; 1 µM).
With `CNc1ncc2c(/C=C/C(=O)N3CCC(OC)CC3)nn(Cc3cccc(C(F)(F)F)c3)c2n1` the remaining activity was 98% (Beta-adrenergic receptor kinase 1 (GRK2, Homo sapiens, UniProt P25098); enzyme activity, inhibitor, radiometric; 1 µM).
For `C=CC(=O)N1CCC(COCC(=O)N2CCN(c3nc(-c4cnc(N)nc4C(F)F)nc(N4CCOC[C@@H]4C)n3)CC2)CC1`, the remaining binding was 94% (Serine/threonine-protein kinase Nek2 (NEK2, Homo sapiens, UniProt P51955); binding, competition with immobilised ligand; 1 µM).
With `CC[C@H](C)[C@H](NC(=O)[C@H](CCC(N)=O)NC(=O)[C@@H](NC(=O)[C@H](CCSC)NC(=O)[C@H](CCCCN)NC(=O)[C@H](CO)NC(=O)[C@@H](NC(=O)[C@H](CCSC)NC(=O)[C@H](CC(C)C)NC(=O)[C@H](CC(N)=O)NC(=O)[C@@H](NC(=O)[C@@H](NC(=O)[C@H](CO)NC(=O)[C@H](CC(C)C)NC(=O)[C@H](C)NC(=O)[C@H](CCCNC(=N)N)NC(=O)[C@H](CCC(=O)O)NC(=O)[C@H](Cc1ccc(O)cc1)NC(=O)[C@H](Cc1ccccc1)NC(=O)[C@H](C)NC(=O)[C@H](CC(N)=O)NC(=O)[C@@H](N)CCCCN)[C@@H](C)CC)[C@@H](C)CC)[C@@H](C)O)C(C)C)C(=O)N[C@@H](CC(N)=O)C(=O)N[C@H](C(=O)O)C(C)C` the remaining activity was 43% (Cyclin-dependent kinase 5, with p35 (CDK5, Homo sapiens, UniProt Q00535); enzyme activity, inhibitor, radiometric; 100 µM, 20 min).
The Emax of `COc1cc(I)c2[nH]cc(CCNC(C)=O)c2c1` is reported as 95% (MTNR1B; β-arrestin recruitment, agonist; MT2; 90 min).

Some of these lines once more:
Under “activity vs control”, `FC(F)(F)Oc1cccc(-c2cnc3ccc(-c4ccncc4)nn23)c1` is recorded as 102% (Rho-associated protein kinase 2 (Rock2, Rattus norvegicus, UniProt Q62868); enzyme activity, inhibitor, radiometric; 1 µM).
